Published values pooled from the literature.
Compare with care: the assays were run in different laboratories.
INSR: Insulin receptor (INSR, Homo sapiens, UniProt P06213)
Chain of UniProt P06213 (whole entry, looked up): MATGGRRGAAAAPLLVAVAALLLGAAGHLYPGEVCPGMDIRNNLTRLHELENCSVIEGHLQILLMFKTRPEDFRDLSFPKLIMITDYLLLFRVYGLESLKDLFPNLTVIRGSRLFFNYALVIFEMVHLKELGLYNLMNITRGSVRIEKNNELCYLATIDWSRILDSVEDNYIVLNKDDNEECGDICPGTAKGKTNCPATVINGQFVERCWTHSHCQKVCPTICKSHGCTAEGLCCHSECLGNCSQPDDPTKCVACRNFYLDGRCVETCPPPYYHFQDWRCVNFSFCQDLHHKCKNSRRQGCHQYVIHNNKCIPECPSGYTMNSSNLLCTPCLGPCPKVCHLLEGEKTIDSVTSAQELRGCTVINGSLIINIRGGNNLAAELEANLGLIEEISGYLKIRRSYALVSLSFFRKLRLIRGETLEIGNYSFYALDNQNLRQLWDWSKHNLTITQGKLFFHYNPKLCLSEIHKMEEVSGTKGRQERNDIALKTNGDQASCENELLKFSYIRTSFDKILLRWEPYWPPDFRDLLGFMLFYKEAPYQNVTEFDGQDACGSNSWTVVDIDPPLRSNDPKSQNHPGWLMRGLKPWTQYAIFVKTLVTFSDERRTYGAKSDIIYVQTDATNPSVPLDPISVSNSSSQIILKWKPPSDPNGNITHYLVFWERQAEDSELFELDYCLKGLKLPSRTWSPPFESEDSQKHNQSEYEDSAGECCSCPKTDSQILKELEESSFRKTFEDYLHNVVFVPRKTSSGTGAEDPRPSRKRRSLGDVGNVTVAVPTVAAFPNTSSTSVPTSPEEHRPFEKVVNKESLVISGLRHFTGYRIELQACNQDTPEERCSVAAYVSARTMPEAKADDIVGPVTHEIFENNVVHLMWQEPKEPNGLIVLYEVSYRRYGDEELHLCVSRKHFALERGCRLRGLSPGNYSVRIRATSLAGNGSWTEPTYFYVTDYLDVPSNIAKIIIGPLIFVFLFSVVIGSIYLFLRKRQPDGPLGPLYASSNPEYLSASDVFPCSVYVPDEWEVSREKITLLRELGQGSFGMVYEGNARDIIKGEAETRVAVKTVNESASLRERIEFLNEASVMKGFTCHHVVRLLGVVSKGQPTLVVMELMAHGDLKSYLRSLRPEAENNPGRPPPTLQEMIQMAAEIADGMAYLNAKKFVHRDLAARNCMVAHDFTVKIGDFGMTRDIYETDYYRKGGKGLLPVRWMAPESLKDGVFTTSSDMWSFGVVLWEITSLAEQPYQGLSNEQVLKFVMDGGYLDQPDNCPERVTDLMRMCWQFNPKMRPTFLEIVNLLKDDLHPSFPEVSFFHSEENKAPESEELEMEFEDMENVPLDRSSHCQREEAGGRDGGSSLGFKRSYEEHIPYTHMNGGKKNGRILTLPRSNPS

| Structure (SMILES) | target | test | conditions | scale | endpoint | result |
| --- | --- | --- | --- | --- | --- | --- |
| N[C@H](C(=O)N1CCCC1)C1CCN(c2nccc3c(-c4ncc(Cl)cc4Cl)cccc23)CC1 | INSR | kinase activity, inhibitor | 10 µM, with: ATP 1 mM |  | inhibition | 12.2% |
| CCOC(=O)[C@@H]1Cc2c(cc([N+](=O)[O-])cc2[N+](=O)[O-])[C@H](O)[C@]12C(=O)Nc1ccc(Br)cc12 | INSR | binding, competition with immobilised ligand | 0.1 µM |  | remaining binding | 77% |
| CCn1nc(Cl)c2c1-c1cnc(N)c(c1)O[C@H](C)c1cc(F)ccc1-c1nn(C)cc1C2 | INSR | kinase activity, inhibitor |  | relative to: IC50 INSR over IC50 ALK | selectivity ratio | 67 fold |
| C[C@@H]1COCCN1c1nc(NCc2cccnc2C(F)(F)F)c2cccnc2n1 | INSR | binding | CEREP panel |  | IC50 | > 100 µM |
| CS(C)(=O)=Nc1ccc(-c2ccc(-c3nc4cc(O[C@@H]5CO[C@H]6[C@@H]5OC[C@H]6O)[nH]c4cc3F)cc2)cc1 | Insulin receptor, phosphorylated (INSR, Homo sapiens, UniProt P06213) | enzyme activity, inhibitor | 10 µM |  | inhibition | 9% |
| COc1ccc(F)cc1S(=O)(=O)Nc1cnc2c(c1)C(=O)NCCO2 | INSR | enzyme activity, inhibitor | 10 µM |  | inhibition | 0% |
| Cc1ccc2c(n1)c(-c1cccc(S(C)(=O)=O)c1)c(C)n2C/C(F)=C/CN | INSR | cell-free assay | 10 µM |  | inhibition | -11% |
| C[C@H](NCc1ccc(-c2ccc(C(F)(F)F)cc2)cc1)C(N)=O | INSR | cell-free assay, competition with immobilised ligand | 1 µM |  | inhibition | 28% |
| CC(C)[C@H]1NC(=O)C[C@H]2/C=C/CCSSC[C@@H](NC1=O)C(=O)N[C@H](Cc1cccc3ccccc13)C(=O)NCC(=O)O2 | INSR | enzyme activity, inhibitor | 10 µM |  | inhibition | -7% |
| CN(/N=C/c1ccccc1C(=O)O)c1nc(-c2ccccc2Cl)cs1 | INSR | enzyme activity, inhibitor | 1 µM |  | inhibition | -12.1% |
| Nc1ccc(/C=C/C(=O)N2CCc3c(oc4c(-c5ccc(F)cc5)cc(-c5ccc(C(=O)N6CCC(F)(F)CC6)cn5)cc34)C2)cn1 | INSR | binding, competition with immobilised ligand | 1 µM |  | remaining binding | 77% |
| O=C(O)c1ccccc1/C=N/Nc1nc(-c2ccccc2Cl)cs1 | INSR | enzyme activity, inhibitor | 1 µM |  | inhibition | -1.03% |
| O=C1NC(=O)c2c1c1cc(F)c[n+]3c1c1c2c2cc(O)ccc2[n]1[Ru-4]312([N]=C=S)[S+]3CC[S+]1CC[S+]2CC3 (stereo not shown) | Insulin receptor, activated (INSR, Homo sapiens, UniProt P06213) | enzyme activity | 100 nM, human enzyme, with: 10 µM ATP | relative to: untreated | remaining activity | 27% |

For quick reference, copied from above:
| Structure (SMILES) | target | test | conditions | scale | endpoint | result |
| --- | --- | --- | --- | --- | --- | --- |
| CCOC(=O)[C@@H]1Cc2c(cc([N+](=O)[O-])cc2[N+](=O)[O-])[C@H](O)[C@]12C(=O)Nc1ccc(Br)cc12 | INSR | binding, competition with immobilised ligand | 0.1 µM |  | remaining binding | 77% |
| CCn1nc(Cl)c2c1-c1cnc(N)c(c1)O[C@H](C)c1cc(F)ccc1-c1nn(C)cc1C2 | INSR | kinase activity, inhibitor |  | relative to: IC50 INSR over IC50 ALK | selectivity ratio | 67 fold |
